Experimental data of several laboratories.
pKi: −log10 of the molar value.
CTSL: Procathepsin L (CTSL, Homo sapiens, UniProt P07711)
UniProt P07711, sequence (whole entry, looked up): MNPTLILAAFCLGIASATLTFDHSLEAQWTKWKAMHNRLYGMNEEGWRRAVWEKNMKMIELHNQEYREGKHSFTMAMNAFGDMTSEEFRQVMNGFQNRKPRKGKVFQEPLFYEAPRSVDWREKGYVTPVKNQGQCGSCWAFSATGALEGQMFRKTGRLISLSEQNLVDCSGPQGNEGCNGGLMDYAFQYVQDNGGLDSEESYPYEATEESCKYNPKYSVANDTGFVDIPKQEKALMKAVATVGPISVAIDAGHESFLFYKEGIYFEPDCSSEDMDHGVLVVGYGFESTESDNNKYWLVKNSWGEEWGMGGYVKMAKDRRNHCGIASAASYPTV
DRD3: D(3) dopamine receptor (DRD3, Homo sapiens, UniProt P35462)
UniProt P35462, sequence (whole entry, looked up): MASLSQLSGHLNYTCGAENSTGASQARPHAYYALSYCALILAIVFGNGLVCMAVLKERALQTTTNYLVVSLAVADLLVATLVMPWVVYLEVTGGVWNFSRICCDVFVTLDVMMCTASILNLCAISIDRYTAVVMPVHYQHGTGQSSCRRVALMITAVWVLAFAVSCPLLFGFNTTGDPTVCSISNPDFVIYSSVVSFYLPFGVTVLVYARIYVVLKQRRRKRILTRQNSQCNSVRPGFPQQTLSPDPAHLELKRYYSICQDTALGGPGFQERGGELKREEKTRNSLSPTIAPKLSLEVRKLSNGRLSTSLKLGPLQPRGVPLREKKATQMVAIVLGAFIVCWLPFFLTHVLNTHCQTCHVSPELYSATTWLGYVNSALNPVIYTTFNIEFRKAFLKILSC
UniProt Q15569, sequence (whole entry, looked up): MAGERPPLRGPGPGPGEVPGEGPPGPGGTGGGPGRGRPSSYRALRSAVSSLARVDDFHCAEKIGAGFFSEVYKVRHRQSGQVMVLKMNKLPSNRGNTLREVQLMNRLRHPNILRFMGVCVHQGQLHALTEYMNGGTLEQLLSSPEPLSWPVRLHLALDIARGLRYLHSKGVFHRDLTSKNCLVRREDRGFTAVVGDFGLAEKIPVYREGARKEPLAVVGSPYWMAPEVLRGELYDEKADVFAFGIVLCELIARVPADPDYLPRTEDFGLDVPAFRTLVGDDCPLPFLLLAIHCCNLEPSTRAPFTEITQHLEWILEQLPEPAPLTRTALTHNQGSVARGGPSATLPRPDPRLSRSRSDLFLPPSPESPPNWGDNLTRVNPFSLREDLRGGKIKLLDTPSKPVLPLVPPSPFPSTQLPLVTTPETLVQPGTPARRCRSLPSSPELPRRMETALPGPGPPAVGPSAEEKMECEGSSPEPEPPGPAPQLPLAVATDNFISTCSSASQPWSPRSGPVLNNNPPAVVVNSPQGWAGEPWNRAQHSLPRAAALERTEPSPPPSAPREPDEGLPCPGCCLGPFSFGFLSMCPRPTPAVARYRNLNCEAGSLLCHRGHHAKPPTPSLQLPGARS
UniProt Q9H8M2, sequence (whole entry, unmodified, looked up): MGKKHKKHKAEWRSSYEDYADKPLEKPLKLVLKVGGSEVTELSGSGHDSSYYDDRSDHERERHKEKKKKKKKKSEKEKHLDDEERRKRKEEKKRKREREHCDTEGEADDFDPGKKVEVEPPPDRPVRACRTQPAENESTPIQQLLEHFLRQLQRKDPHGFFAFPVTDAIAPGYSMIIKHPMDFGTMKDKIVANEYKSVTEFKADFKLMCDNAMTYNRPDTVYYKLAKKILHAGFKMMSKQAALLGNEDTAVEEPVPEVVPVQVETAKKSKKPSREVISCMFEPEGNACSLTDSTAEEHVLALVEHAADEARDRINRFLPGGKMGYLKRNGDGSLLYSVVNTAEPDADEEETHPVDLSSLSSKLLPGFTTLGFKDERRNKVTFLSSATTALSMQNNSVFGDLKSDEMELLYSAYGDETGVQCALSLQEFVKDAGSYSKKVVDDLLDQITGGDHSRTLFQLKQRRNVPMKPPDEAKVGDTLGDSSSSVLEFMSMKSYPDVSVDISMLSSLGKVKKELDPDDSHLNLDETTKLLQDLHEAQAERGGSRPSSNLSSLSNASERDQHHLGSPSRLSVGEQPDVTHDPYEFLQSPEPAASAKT
UniProt P61075, sequence (whole entry, looked up): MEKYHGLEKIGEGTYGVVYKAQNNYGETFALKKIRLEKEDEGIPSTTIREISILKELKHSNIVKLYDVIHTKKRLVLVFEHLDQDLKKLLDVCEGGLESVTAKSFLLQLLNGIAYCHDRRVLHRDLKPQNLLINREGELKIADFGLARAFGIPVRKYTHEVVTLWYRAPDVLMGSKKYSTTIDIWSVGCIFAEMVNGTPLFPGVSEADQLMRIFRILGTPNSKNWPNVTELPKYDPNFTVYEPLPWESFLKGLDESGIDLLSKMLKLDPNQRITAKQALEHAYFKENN
UniProt Q9BY41, sequence (whole entry, looked up): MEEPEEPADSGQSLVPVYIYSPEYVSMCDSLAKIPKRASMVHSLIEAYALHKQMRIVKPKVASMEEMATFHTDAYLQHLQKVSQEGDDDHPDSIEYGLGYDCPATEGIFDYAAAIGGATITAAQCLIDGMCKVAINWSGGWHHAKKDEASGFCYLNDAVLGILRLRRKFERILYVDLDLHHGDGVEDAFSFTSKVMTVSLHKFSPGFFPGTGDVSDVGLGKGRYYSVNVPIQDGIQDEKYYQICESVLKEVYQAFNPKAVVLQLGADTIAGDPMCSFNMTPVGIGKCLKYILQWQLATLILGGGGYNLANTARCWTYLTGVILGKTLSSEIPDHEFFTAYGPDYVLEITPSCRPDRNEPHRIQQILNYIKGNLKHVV
UniProt Q9C098, sequence (whole entry, looked up): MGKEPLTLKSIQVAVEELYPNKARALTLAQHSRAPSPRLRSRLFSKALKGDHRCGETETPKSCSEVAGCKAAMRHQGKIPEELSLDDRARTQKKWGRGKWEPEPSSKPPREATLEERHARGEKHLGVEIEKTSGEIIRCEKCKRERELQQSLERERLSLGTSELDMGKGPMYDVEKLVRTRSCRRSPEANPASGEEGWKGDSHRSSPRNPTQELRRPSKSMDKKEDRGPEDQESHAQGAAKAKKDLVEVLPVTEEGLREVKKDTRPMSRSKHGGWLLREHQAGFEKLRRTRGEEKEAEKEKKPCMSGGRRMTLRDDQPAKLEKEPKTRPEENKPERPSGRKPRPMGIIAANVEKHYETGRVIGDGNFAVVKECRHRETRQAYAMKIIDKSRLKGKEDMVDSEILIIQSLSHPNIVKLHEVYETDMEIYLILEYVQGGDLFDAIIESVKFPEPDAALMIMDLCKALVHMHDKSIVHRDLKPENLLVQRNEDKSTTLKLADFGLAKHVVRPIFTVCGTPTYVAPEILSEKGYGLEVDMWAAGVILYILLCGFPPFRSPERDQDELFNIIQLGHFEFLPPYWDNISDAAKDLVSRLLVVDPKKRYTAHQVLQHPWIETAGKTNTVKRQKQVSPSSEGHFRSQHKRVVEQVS
UniProt Q00535, sequence (whole entry, looked up): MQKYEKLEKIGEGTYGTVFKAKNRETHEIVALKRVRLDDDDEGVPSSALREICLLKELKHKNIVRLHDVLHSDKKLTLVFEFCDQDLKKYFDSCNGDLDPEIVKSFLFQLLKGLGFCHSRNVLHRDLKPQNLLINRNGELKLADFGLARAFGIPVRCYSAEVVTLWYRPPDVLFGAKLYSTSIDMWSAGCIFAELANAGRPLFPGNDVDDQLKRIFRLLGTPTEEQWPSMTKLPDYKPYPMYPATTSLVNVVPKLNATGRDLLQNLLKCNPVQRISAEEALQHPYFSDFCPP
UniProt P78368, sequence (whole entry, looked up): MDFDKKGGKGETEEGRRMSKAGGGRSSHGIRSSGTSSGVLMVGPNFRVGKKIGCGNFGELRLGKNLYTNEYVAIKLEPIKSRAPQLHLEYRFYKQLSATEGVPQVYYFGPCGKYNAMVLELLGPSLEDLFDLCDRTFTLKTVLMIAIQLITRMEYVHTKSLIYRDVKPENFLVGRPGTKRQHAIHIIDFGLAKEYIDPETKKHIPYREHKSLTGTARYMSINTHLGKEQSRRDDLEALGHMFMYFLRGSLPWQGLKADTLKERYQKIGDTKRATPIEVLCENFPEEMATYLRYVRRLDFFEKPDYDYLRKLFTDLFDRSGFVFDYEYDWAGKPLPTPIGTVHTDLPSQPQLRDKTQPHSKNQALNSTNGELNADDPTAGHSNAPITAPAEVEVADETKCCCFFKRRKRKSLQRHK
UniProt Q9UKI8, sequence (whole entry, looked up): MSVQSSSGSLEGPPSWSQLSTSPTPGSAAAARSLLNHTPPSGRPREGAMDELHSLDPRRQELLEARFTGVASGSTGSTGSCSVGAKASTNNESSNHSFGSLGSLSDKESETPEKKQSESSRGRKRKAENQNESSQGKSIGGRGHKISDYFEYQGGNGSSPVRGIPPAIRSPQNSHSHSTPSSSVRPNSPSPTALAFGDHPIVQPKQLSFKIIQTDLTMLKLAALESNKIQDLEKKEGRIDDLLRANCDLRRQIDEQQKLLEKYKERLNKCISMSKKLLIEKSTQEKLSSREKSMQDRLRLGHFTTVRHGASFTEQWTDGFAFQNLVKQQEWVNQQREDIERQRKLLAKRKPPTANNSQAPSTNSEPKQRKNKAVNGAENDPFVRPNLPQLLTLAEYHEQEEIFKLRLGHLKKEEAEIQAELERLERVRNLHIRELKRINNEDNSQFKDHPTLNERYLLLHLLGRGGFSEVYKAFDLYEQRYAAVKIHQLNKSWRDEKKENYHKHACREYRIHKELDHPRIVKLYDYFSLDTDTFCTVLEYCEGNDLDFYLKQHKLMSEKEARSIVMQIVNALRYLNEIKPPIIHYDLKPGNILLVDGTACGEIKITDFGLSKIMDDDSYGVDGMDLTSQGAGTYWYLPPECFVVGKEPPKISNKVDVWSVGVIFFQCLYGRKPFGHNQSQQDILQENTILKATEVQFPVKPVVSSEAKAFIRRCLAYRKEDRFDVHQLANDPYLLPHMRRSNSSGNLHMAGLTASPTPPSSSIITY

CCCCCCCCCC=O — remaining activity (CTSL; enzyme activity, inhibitor; 100 µM): 71%
C1=C/COCc2cc(ccc2OCCN2CCCC2)Nc2nccc(n2)-c2cccc(c2)COC/1 — remaining binding (EGFR (Homo sapiens, UniProt P00533); binding; 0.1 µM): 75%
COc1cc(-c2cc(C(C)=O)n3ccccc23)c(OC)cc1CN1CC(O)C1 — ΔTm (BRD9 (Homo sapiens, UniProt Q9H8M2); thermal stability, DSF; 200 µM): 10.5 °C
CC[C@H](C)[C@H](NC(=O)[C@H](CCC(N)=O)NC(=O)[C@H](CC(C)C)NC(=O)[C@H](CCSC)NC(=O)[C@H](CCCCN)NC(=O)[C@H](CO)NC(=O)[C@H](CO)NC(=O)[C@H](CCSC)NC(=O)[C@H](CC(C)C)NC(=O)[C@H](CC(N)=O)NC(=O)[C@@H](NC(=O)[C@@H](NC(=O)[C@H](CO)NC(=O)[C@H](CC(C)C)NC(=O)[C@H](CS)NC(=O)[C@H](CCCNC(=N)N)NC(=O)[C@H](CC(=O)O)NC(=O)[C@H](Cc1c[nH]c2ccccc12)NC(=O)[C@H](Cc1ccccc1)NC(=O)[C@H](C)NC(=O)[C@H](CCC(=O)O)NC(=O)[C@@H](N)CCCCN)C(C)C)[C@@H](C)CC)C(=O)N[C@@H](CC(N)=O)C(=O)N[C@@H](C)C(=O)O — remaining activity (Cyclin-dependent kinase 5, with p35 (CDK5, Homo sapiens, UniProt Q00535); enzyme activity, inhibitor, radiometric; 100 µM, 20 min): 71%
CC(C)c1ccc(OS(=O)(=O)Oc2cccc(C(=O)NO)c2)cc1 — pKi (HDAC6 (Homo sapiens, UniProt Q9UBN7); enzyme activity, inhibitor, fluorescence): 6.20
CC(=NNC(N)=S)c1ccc(Nc2nnc(-c3ccc(Cl)cc3)c3ccccc23)cc1 — cell death (MCF7; cell growth or viability, MTT; 0.625 µM): 95.4%
CSc1ccc(NS(=O)(=O)c2c(C)[nH]c(C)c2C(=O)N2CCC(F)(F)C2)cc1Cl — Emax (DRD3; β-arrestin recruitment, agonist; 90 min): 93%
CNc1ncc2c(/C=C/C(=O)N3CCC(OC)CC3)nn(Cc3cccc(C(F)(F)F)c3)c2n1 — remaining activity (CSNK1G2 (Homo sapiens, UniProt P78368); enzyme activity, inhibitor, radiometric; 1 µM): 106%
CCCCC(=O)Nc1ccc(-c2ccc3ncn(CCC)c(=O)c3c2)cn1 — remaining binding (TLK1 (Homo sapiens, UniProt Q9UKI8); binding, competition with immobilised ligand; 0.5 µM): 90%
S=C(Nc1ccccc1)Nc1ccc(Oc2nnc(-c3ccc(Cl)cc3)c3ccccc23)cc1 — cell death (MCF7; cell growth or viability, MTT; 0.625 µM): 0.266%
Nc1ncnc2occ(-c3ccc(NC(=O)Nc4cc(C(F)(F)F)ccc4F)cc3)c12 — remaining signal (EGFR (Homo sapiens, UniProt P00533, L861Q); cell-free assay; 20 µM): 24%
COc1cc(-c2cncc3c2CN(C)Cc2cc(N4CCNCC4)ccc2-3)cc(OC)c1OC — remaining activity (DCLK3 (Homo sapiens, UniProt Q9C098); enzyme activity, inhibitor; 1 µM): 121%
Cc1cc([C@@H](C)Nc2ccccc2C(=O)O)c2nc(N3CCC(F)(F)CC3)c(C#N)c(=O)n2c1 — remaining binding (ULK2 (Homo sapiens, UniProt Q8IYT8); binding, competition with immobilised ligand; 1 µM): 56%
CC(C)(C)c1ccc(OS(=O)(=O)Oc2cc(F)cc(C(=O)NO)c2)cc1 — pKi (HDAC8 (Homo sapiens, UniProt Q9BY41); enzyme activity, inhibitor, fluorescence): 5.21
CC(=O)Nc1ccc(Oc2ccc3c(c2)C(=O)N(c2cc(C)ccc2C)C3=O)cc1 — koff (Fibroblast growth factor 14 (Homo sapiens, UniProt Q92915); binding, SPR): 0.648 s⁻¹
COc1cc2c(=O)c(-c3ccc(O)cc3)coc2cc1O — remaining activity (CTSL; enzyme activity, inhibitor; 100 µM): 66.8%
COc1cc(C(F)(F)F)c(Cl)cc1NS(=O)(=O)c1c(C)[nH]c(C)c1C(=O)N1CCC(F)(F)C1 — Emax (DRD3; β-arrestin recruitment, agonist; 90 min): 99%
CC[C@H](C)[C@H](NC(=O)[C@H](CCC(N)=O)NC(=O)[C@@H](NC(=O)[C@H](CCSC)NC(=O)[C@H](CCCCN)NC(=O)[C@H](CO)NC(=O)[C@@H](NC(=O)[C@H](CCSC)NC(=O)[C@H](CC(C)C)NC(=O)[C@H](CC(N)=O)NC(=O)[C@@H](NC(=O)[C@@H](NC(=O)[C@H](CO)NC(=O)[C@H](CC(C)C)NC(=O)[C@H](C)NC(=O)[C@H](CCCNC(=N)N)NC(=O)[C@H](CCC(=O)O)NC(=O)[C@H](Cc1ccc(O)cc1)NC(=O)[C@H](Cc1ccccc1)NC(=O)[C@H](C)NC(=O)[C@H](CC(N)=O)NC(=O)[C@@H](N)CCCCN)[C@@H](C)CC)[C@@H](C)CC)[C@@H](C)O)C(C)C)C(=O)N[C@@H](CC(N)=O)C(=O)N[C@H](C(=O)O)C(C)C — remaining activity (GSK3B (Homo sapiens, UniProt P49841); enzyme activity, inhibitor, radiometric; 100 µM, 20 min): 115%
COc1ccc(/C=C/C(=O)c2c(O)cc(OC)cc2OC)cc1 — remaining activity (CTSL; enzyme activity, inhibitor; 100 µM): 147%
F[C@@H]1CCN(c2nccc(-c3cnn4ncccc34)n2)C1 — remaining binding (CRK2 (Plasmodium falciparum, UniProt P61075); binding; 1 µM): 100%
COc1ccccc1/C=C/C=O — remaining activity (CTSL; enzyme activity, inhibitor; 100 µM): 113%
OC[C@H]1O[C@@H](Oc2ccc(O)cc2)[C@H](O)[C@@H](O)[C@@H]1O — inhibition (USP51 (Homo sapiens, UniProt Q70EK9); enzyme activity, inhibitor; 5 µM): 30%
O=c1c(O)c(-c2cc(O)c(O)c(O)c2)oc2cc(O)ccc12 — remaining activity (CTSL; enzyme activity, inhibitor; 100 µM): 108%
Cc1cccc(N(O)N=Nc2ccc(S(=O)(=O)Nc3onc(C)c3C)cc2)c1 — inhibition (ABTS scavenging; 60 µg/mL): 30.5%
C=CC(=O)N1CCC(COCC(=O)N2CCN(c3nc(-c4cnc(N)nc4C(F)F)nc(N4CCOC[C@@H]4C)n3)CC2)CC1 — remaining binding (SLK (Homo sapiens, UniProt Q9H2G2); binding, competition with immobilised ligand; 1 µM): 82%
FC(F)(F)Oc1cccc(-c2cnc3ccc(-c4ccncc4)nn23)c1 — activity vs control (TESK1 (Homo sapiens, UniProt Q15569); enzyme activity, inhibitor, radiometric; 5 µM): 10%
COc1ccc(C=O)c(O)c1 — remaining activity (CTSL; enzyme activity, inhibitor; 100 µM): 95.8%
Cc1noc(NS(=O)(=O)c2ccc(N=NN(C)O)cc2)c1C — inhibition (ABTS scavenging; 60 µg/mL): 42.1%
